{"data": "Results of several laboratories", "note": "Protocols differ between the studies behind these lines. Values joined by “and” are separate records of one study, mostly repeats; a detail may differ. ± gives the spread as reported."}
{"SMILES": "C=CCn1c(=O)c2cnc(Nc3ccc(N4CCN(C)CC4)cc3)nc2n1-c1ccc2c(n1)[C@@](O)(CC)CC2", "test system": "A-427, female NOD/SCID mouse xenograft, plasma", "conditions": "oral, 40 mg/kg once daily", "quantity": "Cmax", "result": "2000 ng/mL"}
{"SMILES": "Cc1nc(-c2ccc(OCC(C)C)c(C#N)c2)sc1C(=O)O", "test system": "healthy Chinese subjects", "conditions": "oral, 40 mg", "quantity": "dizziness incidence", "result": "2.6%"}
{"SMILES": "OCc1nc2ccc(NCc3ccc(C(F)(F)F)cc3)cc2[nH]1", "test system": "Balb/c mouse, male, heart", "conditions": "intravenous, 1 mg/kg, 6 h", "scale": "relative to: tissue over plasma", "quantity": "tissue/plasma ratio", "result": "2 ± 0.3"}
{"SMILES": "O=C(CCCCCCC(=O)Nc1ccc(CC[18F])cc1)NO", "test system": "athymic nu/nu male mice, LNCaP xenograft, spleen", "conditions": "intravenous, 1 h", "quantity": "tissue uptake", "result": "1.7 ± 0.4 %ID/g"}
{"SMILES": "Cc1cc(-c2nnc(N)nc2-c2ccc(F)cc2)cc(Cl)n1", "assay": "measured: psoriasiform dermatitis", "test system": "IO-naive mCRPC patients, male", "conditions": "oral, dose not given, treatment-related, grade 2", "quantity": "patients with immune-mediated AE", "result": "0%"}
{"SMILES": "CN(C(=O)n1cnc(-c2cccnc2)c1)[C@H]1CC[C@H](O)CC1", "test system": "Wistar rat, midbrain", "conditions": "oral, 10 mg/kg of BIA 10-2474, 4 h, single dose", "quantity": "concentration", "result": "35.5 ± 8.6 ng/g"}
{"SMILES": "COc1ccc(C[C@@H](C)[C@@H](C)Cc2ccc(OC)c(OC)c2)cc1OC", "test system": "beagle dog female, plasma", "conditions": "oral, 100 mg/kg/day, day 1", "quantity": "AUC(0-t)", "result": "18000 ± 1090 ng·h/mL"}
{"SMILES": "CCc1nn(C)c2nc(-c3ccc(C(=O)O)cc3)nc(NCc3ccc(F)cc3)c12", "test system": "NSG mice", "conditions": "dose not given, day 5 of treatment", "quantity": "body weight", "result": "21.3 g and 21.9 g and 20.8 g"}
{"SMILES": "O=C(CCCCCCC(=O)Nc1ccc(I)cc1)NO", "target or system": "HBL-1", "conditions": "0.1 µM, 120 h", "quantity": "viability", "result": "88.6%"}
{"SMILES": "COc1ccc2c3c([nH]c2c1)[C@H](CC(C)C)N1C(=O)[C@H](CC(=O)NC(C)C)NC(=O)[C@@H]1C3", "test system": "Fech-mutant mouse, liver", "conditions": "oral, 100 mg/kg daily, 5 days", "quantity": "liver protoporphyrin IX", "result": "83.8 ng/g and 110 ng/g and 111 ng/g"}
{"SMILES": "COc1cc(C(=O)NC2CCN(C)CC2)c(F)cc1Nc1ncc(C(F)(F)F)c(Oc2cccc3c2C(=O)N(C)C3)n1", "test system": "human patients, plasma", "conditions": "oral, 100 mg single dose, geometric mean", "quantity": "dose-normalised AUC(0-inf)", "result": "230 nmol·h/L per mg"}
{"SMILES": "CC(C)(C)OC[C@@H]1C(=O)NCCN1C(=O)C[C@H](N)Cc1cc(F)c(F)cc1F", "assay": "measured: blood and lymphatic disorders", "test system": "healthy Korean men", "conditions": "oral, dose not given", "quantity": "number of TEAEs", "result": 1}
{"SMILES": "CC(C)(C(=O)N1CCOc2c(C#N)cncc2C1)C(F)F", "assay": "measured: conjunctival hyperaemia", "test system": "human", "conditions": "oral, 15 mg twice daily, 14 days, multiple ascending dose", "quantity": "subjects with adverse event", "result": "0%"}
{"SMILES": "NCCONC(=O)[C@@H]1CC[C@@H]2CN1C(=O)N2OS(=O)(=O)O", "assay": "measured: upper respiratory tract infection", "test system": "healthy Chinese men", "conditions": "intravenous, 2 g, treatment-emergent", "quantity": "adverse event incidence", "result": "0%"}
{"SMILES": "C[C@@H](O)CCOC(=O)C[C@@H](C)O", "test system": "human", "conditions": "oral drink, dose not given, 90 min post dose, mean", "quantity": "heart rate", "result": "75 beats/min"}
{"SMILES": "OC[C@H]1O[C@@H](c2ccc(Cl)c(Cc3ccc(O[C@H]4CCOC4)cc3)c2)[C@H](O)[C@@H](O)[C@@H]1O", "test system": "Japanese type 1 diabetes patients, blood", "conditions": "2.5 mg, day 28", "scale": "relative to: baseline", "quantity": "change in Sodium", "result": "0 mEq/L"}
{"SMILES": "Cc1cc(=O)oc2cc(NC(=O)CCCCCCC(=O)NO)ccc12", "target or system": "HBL-1", "conditions": "0.5 µM, 120 h", "quantity": "viability", "result": "76.8%"}
{"SMILES": "COc1ccc2c(=O)n(C)c(-c3ccccc3)nc2c1", "test system": "male Sprague-Dawley rat, testis", "conditions": "oral, 30 mg/kg, 4 h", "quantity": "tissue concentration", "result": "79.2 ng/g"}
{"SMILES": "CC(C)n1c(Nc2cccnc2)nc2cnc(Nc3ccc(N4CCN(C)CC4)cc3)nc21", "assay": "measured: Headache", "test system": "healthy male subjects", "conditions": "oral, 100 mg, together with: gemfibrozil", "quantity": "adverse event incidence", "result": "0%"}
{"SMILES": "O=C(N[C@H](Cc1c[nH]c2ccccc12)C(=O)Nc1ccncc1)c1ccc(N2CCN(c3ccc(F)cc3F)CC2)cc1F", "test system": "Swiss Webster mouse, female, liver", "conditions": "oral, 50 mg/kg, 2 h, 20% Kolliphor vehicle", "quantity": "concentration", "result": "98 µM"}
{"SMILES": "Cc1c(-c2ccc(N3CCc4cccc(C(=O)Nc5nc6ccccc6s5)c4C3)nc2C(=O)O)cnn1CC12CC3(C)CC(C)(C1)CC(OCCNCC[C@H](O)CO)(C3)C2", "test system": "beagle dog, anaesthetised", "conditions": "intravenous infusion, 0.1 mg/kg/min, 45 min", "scale": "relative to: baseline", "quantity": "mean arterial pressure change", "result": "0 mmHg"}
{"SMILES": "N#Cc1ccc2c(c1)[C@H]1CCCN(C(=O)c3ccc4[nH]cnc4c3)[C@H]1C2", "test system": "human, plasma", "conditions": "oral, 240 mg once daily, steady state", "quantity": "half-life steady state", "result": "4.46 days"}
{"SMILES": "O=C(Nc1nc2cccc(-c3ccc(CN4CCS(=O)(=O)CC4)cc3)n2n1)C1CC1", "assay": "measured: ear and labyrinth disorders", "test system": "human rheumatoid arthritis patients", "conditions": "oral, 150 mg once daily, 4 weeks, regardless of relatedness", "quantity": "treatment-emergent adverse events", "result": "0%"}
{"SMILES": "CN(CCCN1CCN(C(=O)CN2CCN(CC(=O)[O-])CCN(CC(=O)[O-])CCN(CC(=O)[O-])CC2)CC1)c1ccc2nccc(C(=O)NCC(=O)N3CC(F)(F)C[C@H]3C#N)c2c1.[68Ga+3]", "test system": "mouse, HT-1080.hFAP/HT-1080.wt xenograft, HT-1080.hFAP tumour", "conditions": "iv, 500 pmol, 1 h", "quantity": "tumour uptake", "result": "3.9 %IA/g"}
{"SMILES": "Cn1ncnc1[C@H]1c2n[nH]c(=O)c3cc(F)cc(c23)N[C@@H]1c1ccc(F)cc1", "assay": "measured: Dyspepsia", "test system": "advanced solid tumour patients", "conditions": "oral, 0.5 mg single dose, alone or 2 with itraconazole", "quantity": "patients with adverse event", "result": "12%"}
{"SMILES": "COc1ccnc(C(N)=O)c1O", "assay": "aerobic dark soil incubation", "test system": "sandy loam soil", "conditions": "20 °C, persistence endpoint", "quantity": "DT50", "result": "9 days"}
{"SMILES": "COc1nc(-c2cccc(-c3ccccc3)c2C)ccc1CNCCNC(=O)CCCCCCCCCCC(=O)N1CCN(CCNC(=O)c2cc3c(=O)n4cccc(C)c4nc3n(CCc3cccs3)c2=N)CC1", "assay": "measured: BUN, creatinine, GGT, ALT, total bilirubin", "test system": "mice, serum", "conditions": "concentration not given", "scale": "relative to: control group", "quantity": "serum biochemistry", "result": "no effect"}
{"SMILES": "CCCCCN(C)CCC(O)(P(=O)(O)O)P(=O)(O)OP(=O)(O)OC[C@H]1O[C@@H](n2ccc(N)nc2=O)C(F)(F)[C@@H]1O (stereo partly shown)", "test system": "50% human serum", "conditions": "concentration not given, 37 °C", "quantity": "hydrolysis rate", "result": "0.02 h⁻¹"}
{"SMILES": "COc1ccnc(C(=O)O)c1O", "test system": "water/sediment", "conditions": "whole system, geometric mean, no decline default", "quantity": "DT50", "result": "1000 days"}
{"SMILES": "N#Cc1ccc2c(c1)[C@H]1CCCN(C(=O)c3ccc4[nH]cnc4c3)[C@H]1C2", "test system": "human females", "conditions": "80 mg, day 15", "quantity": "SHBG level", "result": "54.2 nmol/L"}
{"SMILES": "O=C1NCCc2nc(OCc3cccc(F)c3)ccc21", "assay": "modified Irwin test", "test system": "Sprague-Dawley rat, male", "conditions": "oral, 100 mg/kg, 4 h", "scale": "higher = stronger change", "quantity": "motor activity score", "result": 0.8}
{"SMILES": "CC[C@H](C)[C@H](NC(=O)[C@H](Cc1ccccc1)NC(=O)[C@H](CCC(=O)O)NC(=O)[C@H](CCCCNC(=O)COCCOCCNC(=O)COCCOCCNC(=O)CC[C@H](NC(=O)CCCCCCCCCCCCCCCCC(=O)O)C(=O)O)NC(=O)[C@H](C)NC(=O)[C@H](C)NC(=O)[C@H](CCC(N)=O)NC(=O)CNC(=O)[C@H](CCC(=O)O)NC(=O)[C@H](CC(C)C)NC(=O)[C@H](Cc1ccc(O)cc1)NC(=O)[C@H](CO)NC(=O)[C@H](CO)NC(=O)[C@@H](NC(=O)[C@H](CC(=O)O)NC(=O)[C@H](CO)NC(=O)[C@@H](NC(=O)[C@H](Cc1ccccc1)NC(=O)[C@@H](NC(=O)CNC(=O)[C@H](CCC(=O)O)NC(=O)C(C)(C)NC(=O)[C@@H](N)Cc1cnc[nH]1)[C@@H](C)O)[C@@H](C)O)C(C)C)C(=O)N[C@@H](C)C(=O)N[C@@H](Cc1c[nH]c2ccccc12)C(=O)N[C@@H](CC(C)C)C(=O)N[C@H](C(=O)N[C@@H](CCCNC(=N)N)C(=O)NCC(=O)N[C@@H](CCCNC(=N)N)C(=O)NCC(=O)O)C(C)C", "assay": "12-lead Holter ECG", "test system": "healthy humans", "conditions": "subcutaneous, 1.5 mg once weekly, 27 h, steady state", "scale": "relative to: placebo", "quantity": "QTcB change from baseline", "result": "9.2 ms"}
{"SMILES": "COc1ccc2c(c1)CN(C(=O)CCN1CCC(Cc3ccccc3)CC1)CC[S@@+]2[O-]", "assay": "telemetry", "test system": "conscious male beagle dogs", "conditions": "intravenous, 8 mg/kg, 4 h", "quantity": "QT interval", "result": "232 ± 11 ms"}
{"SMILES": "COc1cc(N2CCC(N3CCN(C)CC3)CC2)ccc1Nc1ncc(Cl)c(Nc2ccccc2P(C)(C)=O)n1", "test system": "nude mice, NCI-H3122 xenograft", "conditions": "intraperitoneal, 10 mg/kg every other day, day 16", "quantity": "body weight", "result": "25.2 g and 23.4 g and 25.6 g and 23.2 g and 26.5 g"}
{"SMILES": "C1=C/COCc2cc(ccc2OCCN2CCCC2)Nc2nccc(n2)-c2cccc(c2)COC/1", "assay": "LC-MS/MS", "test system": "Sprague-Dawley rat, male, plasma", "conditions": "oral, 36 mg/kg, together with: isavuconazole 20 mg/kg oral", "quantity": "Vz/F", "result": "87.7 ± 91.6 L"}
{"SMILES": "CS(=O)(=O)c1ccc(-c2nc3ccccc3n2CC(=O)N/N=C/c2ccc(Cl)cc2)cc1", "test system": "rat, stomach", "conditions": "concentration not given, 4 h", "scale": "relative to: indomethacin", "quantity": "ulcer number", "result": "12.5%"}
{"SMILES": "C[C@@H](Oc1ccc(S(C)(=O)=O)cc1C(=O)N1C[C@@H]2C[C@]2(c2cc(C(F)(F)F)on2)C1)C(F)(F)F", "test system": "elderly humans, plasma", "conditions": "50 mg once daily, multiple dose, geometric mean", "quantity": "CL/F at steady state", "result": "117 mL/min"}
{"SMILES": "CNCc1ccc(-c2[nH]c3cc(F)cc4c3c2CCNC4=O)cc1", "test system": "human patients", "conditions": "oral, 840 mg twice daily, all grades", "quantity": "malignant neoplasm progression incidence", "result": "0%"}
{"SMILES": "CCc1cc(C(=O)NC)c2nccc(N3CCc4c(cc(Cn5ccnc5)cc4-c4cn(C)nc4C(F)(F)F)C3=O)c2c1", "test system": "Sprague Dawley rat", "conditions": "oral, 100 mg/kg twice daily, 7 days", "quantity": "heart weight", "result": "0.947 ± 0.105 g"}
{"SMILES": "COc1cc(NC(=O)CCN2CCC(OC(=O)Nc3ccccc3-c3ccccc3)CC2)c(Cl)cc1CNC[C@H](O)c1ccc(O)c2[nH]c(=O)ccc12", "assay": "equilibrium dialysis", "test system": "rat, plasma", "quantity": "fraction unbound", "result": 0.0076}
{"note": "A few entries again:"}
{"SMILES": "C1=C/COCc2cc(ccc2OCCN2CCCC2)Nc2nccc(n2)-c2cccc(c2)COC/1", "assay": "LC-MS/MS", "test system": "Sprague-Dawley rat, male, plasma", "conditions": "oral, 36 mg/kg, together with: isavuconazole 20 mg/kg oral", "quantity": "Vz/F", "result": "87.7 ± 91.6 L"}
{"SMILES": "CS(=O)(=O)c1ccc(-c2nc3ccccc3n2CC(=O)N/N=C/c2ccc(Cl)cc2)cc1", "test system": "rat, stomach", "conditions": "concentration not given, 4 h", "scale": "relative to: indomethacin", "quantity": "ulcer number", "result": "12.5%"}
